Published values from different studies.
Lines come from different studies, so protocols differ. ± gives the spread as reported.

| Structure (SMILES) | cell line | test | setting | IC50 [µM] |
| --- | --- | --- | --- | --- |
| COc1ccc(-c2cc(=O)c3c(O)cc(O[C@@H]4O[C@H](CO)[C@@H](O)[C@H](O)[C@H]4O)cc3o2)cc1OC | HCT-116 p53+/+ | cell viability, resazurin reduction | 72 h | > 100 |
| CC/C(=C(\c1ccc(O)cc1)c1ccc(OCCN(C)CCOCCOCCOCCOCCOCCN(C)CCOc2ccc(/C(=C(/CC)c3ccccc3)c3ccc(O)cc3)cc2)cc1)c1ccccc1 | MDA-MB-231 (ER-negative) | cell growth | 96 h | 1.2 |
| CCCCSc1nc(N)c2c(F)c(F)c(C#N)c(F)c2n1 | SGC-7901 | cell growth or viability, MTT | 96 h | 21 |
| COC(=O)[C@H]1[C@H]2C[C@H]3O[C@@]4(CCN3C[C@H]2C[C@@H](OC(=O)c2cc(OC)c(OC)c(OC)c2)[C@@H]1OC)C(=O)Nc1cc(OC)c(-c2ccc(C)cc2)cc14 | SUP-T1 | cell growth or viability, trypan blue | 72 h | 4.72 |
| OCCn1ncc2c(Nc3ccc(F)cc3)ncnc21 | CHO | cell growth or viability, MTT |  | > 50 |
| CC(=O)Oc1cc2c(cc1C(C)C)C1(CC3C(C)(CN4C(=O)c5c(Cl)c(Cl)c(Cl)c(Cl)c5C4=O)CCCC23C)C23c4c5c6c7c8c9c(c%10c%11c2c2c4c4c%12c5c5c6c6c8c8c%13c9c9c%10c%10c%11c%11c2c2c4c4c%12c%12c5c5c6c8c6c8c%13c9c9c%10c%10c%11c2c2c4c4c%12c5c6c5c8c9c%10c2c45)C713 (centres unmarked) | U-937 | cell growth or viability, MTT | 48 h | > 30 |
| COc1ccc(-c2ocnc2-c2cc(Br)c(OC)c(OC)c2)cc1OCCCC(=O)NO | EGI-1 | cell growth or viability, crystal violet | 48 h | 0.6 |
| CCC(C)C1OC(=O)C(C)(C)C(=O)C(Cc2ccccc2)OC(=O)C(C(C)C)OC(=O)C(NC(=O)c2cccc(O)c2)C(C)OC1=O (centres unmarked) | NCM460 | cell viability, CCK-8 | 72 h | > 50 |
| COc1ccc(C[C@H]2COC(=O)[C@@H]2Cc2ccc(OCC(=O)Nc3ccc(C(=O)NO)cc3)c(OC)c2)cc1OC | KU812 | cell growth or viability, CCK-8 | 48 h | > 5 |
| Cc1cnc2c(ccc3c(C)c(C)cnc32)c1C.O=C([O-])Cc1ccccc1Nc1c(Cl)cccc1Cl.O=C([O-])Cc1ccccc1Nc1c(Cl)cccc1Cl.[Mn+2] | HMLER-shEcad | MTT | 72 h | 0.137 ± 0.015 |
| Cc1cn([C@@H]2O[C@H](CSSc3ccccn3)[C@@H](O)[C@H](F)[C@H]2O)c(=O)[nH]c1=O | FM3A | cell growth or viability |  | > 200 |

Excerpt of the above:
| Structure (SMILES) | cell line | test | setting | IC50 [µM] |
| --- | --- | --- | --- | --- |
| CC(=O)Oc1cc2c(cc1C(C)C)C1(CC3C(C)(CN4C(=O)c5c(Cl)c(Cl)c(Cl)c(Cl)c5C4=O)CCCC23C)C23c4c5c6c7c8c9c(c%10c%11c2c2c4c4c%12c5c5c6c6c8c8c%13c9c9c%10c%10c%11c%11c2c2c4c4c%12c%12c5c5c6c8c6c8c%13c9c9c%10c%10c%11c2c2c4c4c%12c5c6c5c8c9c%10c2c45)C713 (centres unmarked) | U-937 | cell growth or viability, MTT | 48 h | > 30 |
